Results from different studies.
Numbered parts are unrelated; each lists some results of a single study. Positions count from the first letter of the parent shown.

Series 1
Target: Centromere-binding protein 1, full length, His-tagged (CBF1, Saccharomyces cerevisiae, UniProt P17106, residues 1-351)
UniProt P17106, sequence (whole entry, looked up): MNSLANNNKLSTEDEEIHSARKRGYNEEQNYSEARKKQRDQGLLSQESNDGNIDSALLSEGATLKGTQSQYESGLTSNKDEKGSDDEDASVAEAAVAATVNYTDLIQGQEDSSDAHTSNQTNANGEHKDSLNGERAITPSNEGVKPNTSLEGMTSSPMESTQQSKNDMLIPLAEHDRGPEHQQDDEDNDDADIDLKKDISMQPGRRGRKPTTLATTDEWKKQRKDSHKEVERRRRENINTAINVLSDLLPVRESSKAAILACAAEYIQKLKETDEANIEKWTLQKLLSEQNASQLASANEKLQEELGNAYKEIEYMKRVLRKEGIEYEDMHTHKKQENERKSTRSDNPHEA
Technique: competition protein-binding microarray
Form: double-stranded DNA, one strand shown
Medium: in vitro
Concentration: 2 µM
Notes: whole 60-bp probe, lowest competitor level
With: Pho4 competitor, 0.05 µM
Reading: higher = stronger binding
All sequences stand within: … GTCTTGATTCGCTTGACGCTGCTG
| Sequence | fluorescence intensity |
| --- | --- |
| GGCTTCTTGAGTGTAAACGTGAGCCCTGTAATCTCA | 117 a.u. |
| TGCGCAACAACTTGGAATGTGGGTGTATGTCTAGAA | 69.9 a.u. |
| CATACCCAACCTTTTCACGTGCTGTAAGATATTTGT | 1160 a.u. |
| GGTGGTTATGGCTGGGTCGTGACGAACTGTGTGTTC | 109 a.u. |
| AAAGCGGTAATTTGCTTAGTGGGTGCAGATATCTAT | 71.5 a.u. |
| CTTCTGTAAATTTGTCACGAAACTTGACGCGCCCCG | 88 a.u. |
| CAAGCGACTTACACAGACATGACAATTGCTCCAATT | 66.3 a.u. |
| CGTCCTAGTGATTGTCACCGAACTTCCATGAGGAAG | 83.8 a.u. |
| CTATTGATGAACAATCACGGCCTCTTGGCTAAGCCC | 70.7 a.u. |
| TGCGCAACAACTTGCATGGTGGGTGTATGTCTAGAA | 66.6 a.u. |
| TCGACGGCGAAGAAGCACATGCCTTCACCGTCCGCA | 77.1 a.u. |
| CGTCCTAGCGATTGAAACGTGGGTGCCATGAGGAAG | 125 a.u. |
| CTAACGAAGGTTTTTCACGTGCTCTACAAGCCAAGT | 1240 a.u. |
| GATAAGAGAGCACAGCACGTGGGTAAAGAGAGATAC | 917 a.u. |
| TTCCATTTACACCGTCACGCTTTCCAAACCATCCAG | 253 a.u. |
| CAAGAGTTCGCGGTATACGTGCGGACCTAAACGAGG | 69.1 a.u. |
| CTTCTGTAAATTTGATCTGTGGGTGGACGCGCCCCG | 78.9 a.u. |
| GGTACAGACACAAAGCTCGTGCAAAGTGCTGTCCTA | 89.1 a.u. |
| CAACTACGCTGGATCGACGTGGGACTGGCAGGGAAG | 69.3 a.u. |
| TCAAACAGCACAGTCTACATGACGCCTGGTGATTTG | 63.3 a.u. |
| ACATCGACGTTATCGCACGTGTGGATGTGTAAGTGG | 1010 a.u. |
| GCAGCACAATCTCCCGTAGAATTATCAAGAATGTTT | 74 a.u. |
| CGTCCTAGTGATTGTCACGCGACTTCCATGAGGAAG | 634 a.u. |

Series 2
Target: CCNF, cyclin fold, Cln2 fusion (human)
Technique: yeast growth competition, sequencing
Medium: yeast
Notes: strong parent motif
Relative to: not given
Reading: higher = stronger binding
Parent: E2F1 docking peptide (human); PPVKRRLDLETDH; partner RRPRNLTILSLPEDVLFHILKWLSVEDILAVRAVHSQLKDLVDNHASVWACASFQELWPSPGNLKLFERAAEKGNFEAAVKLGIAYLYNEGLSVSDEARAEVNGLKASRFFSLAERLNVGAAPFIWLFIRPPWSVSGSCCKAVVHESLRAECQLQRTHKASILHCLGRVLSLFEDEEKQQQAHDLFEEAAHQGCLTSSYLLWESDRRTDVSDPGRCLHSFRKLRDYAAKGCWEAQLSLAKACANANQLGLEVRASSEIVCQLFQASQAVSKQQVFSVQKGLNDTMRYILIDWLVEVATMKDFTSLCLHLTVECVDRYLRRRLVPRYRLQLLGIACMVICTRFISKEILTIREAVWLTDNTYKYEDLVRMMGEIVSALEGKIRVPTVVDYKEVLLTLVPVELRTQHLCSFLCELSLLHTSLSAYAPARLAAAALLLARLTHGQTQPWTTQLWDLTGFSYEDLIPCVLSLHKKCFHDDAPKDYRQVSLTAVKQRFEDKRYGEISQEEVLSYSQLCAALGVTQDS
| Substitution | normalised enrichment score |
| --- | --- |
| PPVKRRLGLETDH [D8G] | 4.32 |
| PPVKRRLDLEHDH [T11H] | 5.26 |
| PPVKRRLCLETDH [D8C] | 6.81 |
| PPVKFRLDLETDH [R5F] | -0.407 |
| PPVKRRLWLETDH [D8W] | 8.01 |
| NPVKRRLDLETDH [P1N] | 6.99 |
| PPVKRRLDLETEH [D12E] | 6.61 |
| PPVKRRDDLETDH [L7D] | 0.547 |
| PPVKRRLDLETMH [D12M] | 7.18 |
| PPVKRGLDLETDH [R6G] | 1.29 |
| PPVKPRLDLETDH [R5P] | -1.18 |
| PPVKRRLDLETCH [D12C] | 8.33 |
| PPVKERLDLETDH [R5E] | 0.451 |
| PAVKRRLDLETDH [P2A] | 6.66 |
| PPVKRRLDLETDQ [H13Q] | 5.94 |
| PEVKRRLDLETDH [P2E] | 5.41 |
| PPVKRRLDLMTDH [E10M] | 6.3 |
| PPVKRRLDLEYDH [T11Y] | 8.07 |
| PPVKRRKDLETDH [L7K] | -0.462 |
| PPVKRMLDLETDH [R6M] | 4.05 |
| PPVKRRLYLETDH [D8Y] | 8.19 |
| PPVKRRHDLETDH [L7H] | -0.288 |
| PGVKRRLDLETDH [P2G] | 6.76 |
| PPVKRRLDLETDY [H13Y] | 7.02 |
| PPKKRRLDLETDH [V3K] | 0.376 |

Series 3
Target: Histone acetyltransferase KAT6A, winged helix 2, GST fusion (KAT6A, Homo sapiens, UniProt Q92794, residues 85-181)
Technique: protein binding microarray
Form: double-stranded DNA, one strand shown
Medium: in vitro
Concentration: not given
Notes: 8-mer, flanks averaged, mean of 2 arrays, mostly near background
Relative to: not given
Reading: higher = stronger binding
Construct (chain): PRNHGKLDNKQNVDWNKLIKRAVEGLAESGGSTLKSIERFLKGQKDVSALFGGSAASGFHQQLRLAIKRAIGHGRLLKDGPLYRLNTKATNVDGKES
| Sequence | E-score |
| --- | --- |
| ACGGTGGA | -0.109 |
| ACTTTAAC | -0.039 |
| AGACGCAC | 0.0571 |
| AAGCGTGT | -0.0754 |
| CTGGTAGA | 0.00209 |
| ATAAACAT | -0.163 |
| GGGCCAAA | 0.0256 |
| AGCCCTCC | -0.00335 |
| GATCATGA | -0.152 |
| ATTCGAGA | -0.105 |
| ATGATGCC | 0.123 |
| CCGACGTC | 0.0662 |
| AGTCATAG | -0.26 |
| ATCCTTCA | -0.133 |
| ATTCCCAC | 0.0142 |
| AACGAAGC | 0.0189 |
| AAGCGGAC | -0.159 |
| ACGCCAGA | 0.0902 |
| AGCGGCGA | 0.226 |
| ACCCCCCC | -0.225 |
| ACGCGTAT | -0.0258 |
| CTCACTCC | 0.0961 |
| CAACTTAC | -0.249 |
| AAAGTATG | -0.133 |
| AAGTCTGC | -0.0893 |

Series 4
Target: UBE2E3 UBC core domain (UniProt Q969T4)
UniProt Q969T4, sequence (whole entry, looked up): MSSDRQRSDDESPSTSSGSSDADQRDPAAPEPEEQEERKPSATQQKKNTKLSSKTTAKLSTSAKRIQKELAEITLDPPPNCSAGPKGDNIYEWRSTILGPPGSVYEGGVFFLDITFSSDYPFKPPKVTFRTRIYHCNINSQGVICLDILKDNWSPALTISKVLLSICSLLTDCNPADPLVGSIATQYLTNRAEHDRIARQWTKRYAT
Technique: yeast two-hybrid
Medium: yeast
Notes: mostly zero background
Relative to: not given
Reading: higher = stronger interaction
B1: PHF21A RING domain (UniProt Q96BD5); chain SPTSTDGDIHEDFCSVCRKSGQLLMCDTCSRVYHLDCLDPPLKTIPKGMWICPRCQDQMLKKEEAIPW
B2: RNF170 RING domain (UniProt Q96K19); chain TRQQFYTDMYCPICLHQASFPVETNCGHLFCGACIIAYWRYGSWLGAISCPICRQTVTLLLTVF
B3: TRIM63 RING domain (UniProt Q969Q1); chain PMENLEKQLICPICLEMFTKPVVILPCQHNLCRKCANDIFQAANPYWTSRGSSVSMSGGRFRCPTCRHEVIMDRHGV
B4: TRIM69 RING domain (UniProt Q86WT6); chain VIQDITMELHCPLCNDWFRDPLMLSCGHNFCEACIQDFWRLQAKETFCPECKMLCQYNNCTF
B5: IRF2BPL RING domain (UniProt Q9H1B7); chain SPMANSGPLCCTICHERLEDTHFVQCPSVPSHKFCFPCSRESIKAQGATGEVYCPSGEKCPLVGSNVP
B6: CUL9 RING domain (UniProt Q8IWT3); chain AQAVPVRPDHCPVCVSPLGCDDDLPSLCCMHYCCKSCWNEYLTTRIEQNLVLNCTCPIADCPAQPTGAFIR
| Sequence | lacZ reporter activity |
| --- | --- |
| QLRRLQEERTCKVCMDKEVSIVFIPCGHLVVCKDCAPSLRKCPICRSTIKGTVRTF (BIRC3 RING domain (UniProt Q13489)) | 0 |
| PEELQAMDNVCIICREEMVTGAKRLPCNHIFHTSCLRSWFQRQQTCPTCRMDVLRASLPA (SYVN1 RING domain (UniProt Q86TM6)) | 0 |
| B1 (PHF21A RING domain) | 0 |
| DDENSDNSNECVVCLSDLRDTLILPCRHLCLCTSCADTLRYQANNCPICRLPFRALLQIR (MGRN1 RING domain (UniProt O60291)) | 0 |
| B2 (RNF170 RING domain) | 0 |
| B3 (TRIM63 RING domain) | 0 |
| EDEVSDNSAECVVCLSDVRDTLILPCRHLCLCNTCADTLRYQANNCPICRLPFRALLQIR (RNF157 RING domain (UniProt Q96PX1)) | 0 |
| B4 (TRIM69 RING domain) | 0 |
| QHHELTSLFECPVCFDYVLPPILQCQAGHLVCNQCRQKLSCCPTCRGALTPSIRNL (SIAH2 RING domain (UniProt O43255)) | 0 |
| KTLSRFGIQPCSICLGDAKDPVCLPCDHVHCLRCLRAWFASEQMICPYCLTALPDEFSPA (RNF213 RING domain (UniProt Q63HN8)) | 0 |
| DAIPSLSECQCGICMEILVEPVTLPCNHTLCKPCFQSTVEKASLCCPFCRRRVSSWTRYH (RNF168 RING domain (UniProt Q8IYW5)) | 0 |
| B5 (IRF2BPL RING domain) | 0 |
| QLQDIKEQTMCPVCLDRLKNMIFLCGHGTCQLCGDRMSECPICRKAIERRILLY (MIB1 RING domain (UniProt Q86YT6)) | 0 |
| B6 (CUL9 RING domain) | 0 |

Series 5
Target: ABI1, truncated, D143A, DHFR fusion (Arabidopsis thaliana)
Technique: DHFR PCA, deep sequencing
Medium: yeast
Notes: methotrexate growth selection, single substitutions
With: (+)-ABA 58 µM
Relative to: wild-type fitted maximum
Reading: higher = stronger binding
Parent: PYL1, truncated, DHFR fusion (Arabidopsis thaliana); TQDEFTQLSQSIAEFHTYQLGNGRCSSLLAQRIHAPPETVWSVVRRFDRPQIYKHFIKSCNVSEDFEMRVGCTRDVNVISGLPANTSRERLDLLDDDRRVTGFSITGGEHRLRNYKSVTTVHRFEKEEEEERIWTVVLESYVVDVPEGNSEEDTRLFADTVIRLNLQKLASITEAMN
| Substitution | relative binding score [%] |
| --- | --- |
| R163D | 29.8 |
| F5P | 74.1 |
| T39M | 83.1 |
| D144S | 57.7 |
| V121T | 23.5 |
| L29Q | 64.4 |
| V40W | 1.12 |
| F66E | 79.3 |
| V118M | 83.1 |
| A158K | -4.64 |
| T119V | 64.9 |
| R90Y | 20.2 |
| T86F | 71.4 |
| V161G | -3.78 |
| R74I | -0.916 |
| D3N | 78.3 |
| L29I | 81.9 |
| R24V | 84.2 |
